Experimental data pooled from the literature.
Each numbered part is a random draw from the data of one study; scales do not carry over between parts. Substitutions count along the parent as printed.

Series 1 — technique: aptamer microarray, sandwich; molecule type: DNA with 2'F-ANA; sample: in vitro; concentration: 200 nM; added: Cy3 exosite-II aptamer, 400 nM; direction: higher = stronger binding; sequence: GGTTGGTGTGGTTGG
Target: Prothrombin, mature alpha-thrombin (F2, Homo sapiens, UniProt P00734)
Notes: whole 15-mer aptamer, many near background
For `2'F-ANA at 1 2 6 7 9 11 12 15`, “mean fluorescence intensity” read 215 a.u.
Under “mean fluorescence intensity”, `2'F-ANA at 4 7 9 10 11 12 14` is recorded as 65.7 a.u.
For `2'F-ANA at 4 5 6 8 12 13 14 15`, “mean fluorescence intensity” read 58.1 a.u.
`2'F-ANA at 1 5 8 9` — result for “mean fluorescence intensity”: 59.2 a.u.
`2'F-ANA at 1 2 3 4 6 7 8 13`: “mean fluorescence intensity” 124 a.u.
`2'F-ANA at 1 2 3 5 10 11 13`: “mean fluorescence intensity” 46 a.u.
Under “mean fluorescence intensity”, `2'F-ANA at 3 4 7 11 12 13 14` is recorded as 379 a.u.
`2'F-ANA at 1 2 3 4 6 10 11 12 14`: “mean fluorescence intensity” 56.8 a.u.
`2'F-ANA at 1 2 4 5 6 9 10 11 13` — result for “mean fluorescence intensity”: 47.8 a.u.
For `2'F-ANA at 1 2 4 7 13`, “mean fluorescence intensity” read 89.4 a.u.
Under “mean fluorescence intensity”, `2'F-ANA at 1 5 6 7 8 9 11 13 14` is recorded as 45.9 a.u.
`2'F-ANA at 6 9 10 15`: “mean fluorescence intensity” 161 a.u.
`2'F-ANA at 1 4 5 6 7 8 9 11 12 13` — result for “mean fluorescence intensity”: 70.4 a.u.
Under “mean fluorescence intensity”, `2'F-ANA at 1 2 3 4 6 8 11` is recorded as 138 a.u.
`2'F-ANA at 3 6 9 11 12 15` — result for “mean fluorescence intensity”: 1040 a.u.
Under “mean fluorescence intensity”, `2'F-ANA at 2 3 4 8 9 14` is recorded as 310 a.u.
`2'F-ANA at 2 4 5 6 7 8 10 12 13 14 15` — result for “mean fluorescence intensity”: 48.8 a.u.
For `2'F-ANA at 3 6 9 10 15`, “mean fluorescence intensity” read 467 a.u.
For `2'F-ANA at 1 6 7 11 14`, “mean fluorescence intensity” read 52.1 a.u.
For `2'F-ANA at 4 5 6 11 13`, “mean fluorescence intensity” read 62.9 a.u.
`2'F-ANA at 4 5 12 13 15`: “mean fluorescence intensity” 87.7 a.u.
`2'F-ANA at 1 2 3 5 7 10 11`: “mean fluorescence intensity” 205 a.u.
Under “mean fluorescence intensity”, `2'F-ANA at 1 3 9 12 15` is recorded as 562 a.u.
`2'F-ANA at 6 8 12 14`: “mean fluorescence intensity” 283 a.u.
`2'F-ANA at 3 4 6 7 8 9`: “mean fluorescence intensity” 673 a.u.

Series 2 — technique: protein-binding microarray; molecule type: double-stranded DNA, one strand shown; sample: in vitro; concentration: 2540 nM top; notes: 60-bp whole probe; added: salmon DNA 0.4 mg/ml; reference: random background probes; direction: higher = stronger binding; constant ends, left off below: GCCTAGCAC … GTCTTGATTCGCTTGACGCTGCTG
Target: Interferon regulatory factor 3, full length, phosphomimetic (IRF3, Homo sapiens, UniProt Q14653, residues 1-427, S386D/S396D/S398D/S402D/T404D/S405D)
Residues (chain): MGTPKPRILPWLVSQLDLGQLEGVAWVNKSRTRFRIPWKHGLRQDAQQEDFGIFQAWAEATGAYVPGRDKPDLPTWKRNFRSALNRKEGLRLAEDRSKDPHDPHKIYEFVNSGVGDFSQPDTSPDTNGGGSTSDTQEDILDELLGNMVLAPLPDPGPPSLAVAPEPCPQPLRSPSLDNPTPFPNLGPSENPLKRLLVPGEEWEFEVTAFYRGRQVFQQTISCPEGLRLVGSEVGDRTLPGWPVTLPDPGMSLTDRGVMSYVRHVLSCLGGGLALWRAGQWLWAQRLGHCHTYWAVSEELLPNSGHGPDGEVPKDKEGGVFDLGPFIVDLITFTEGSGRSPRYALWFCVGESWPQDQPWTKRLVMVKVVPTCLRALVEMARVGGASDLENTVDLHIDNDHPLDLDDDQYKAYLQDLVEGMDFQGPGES
Under “fitted relative affinity”, `TCAATATTGAGACTCATACTGTGCTAG` is recorded as 0.176 z-score.
Under “fitted relative affinity”, `TTAGGACTGGGGCTGGGTTAGTGCTAG` is recorded as -0.896 z-score.
Under “fitted relative affinity”, `TCATTTTACTTTCTATGACTGTGCTAG` is recorded as 3.92 z-score.
`GACGAACTTAGTTTCGAGACGTGCTAG`: “fitted relative affinity” 2.42 z-score.
Under “fitted relative affinity”, `GAGGGACTGCTTATCCTGACGTGCTAG` is recorded as -0.68 z-score.
For `TCATATACCTGTATATCACTGTGCTAG`, “fitted relative affinity” read 0.569 z-score.
Under “fitted relative affinity”, `TCACCTTCCTCTTTTACACTGTGCTAG` is recorded as 2.26 z-score.
`GACGATCTGAGTTTCGAGACGTGCTAG`: “fitted relative affinity” 1.33 z-score.
For `GACGATTTCGGGTATCGTGACGTGCTA`, “fitted relative affinity” read 1.69 z-score.
Under “fitted relative affinity”, `TTAGGTTTCGCCTATCGGTTAGTGCTA` is recorded as 2.34 z-score.
`GGCGATTTCGGGACTGGAGACGTGCTA`: “fitted relative affinity” 1.54 z-score.
`TTAGGTATCGGGACTGAGTTAGTGCTA`: “fitted relative affinity” 1.32 z-score.
`GACGGTTTCCTTCTCCTAACGTGCTAG` — result for “fitted relative affinity”: 10.2 z-score.
`TCATTTTAATTTTTAACACTGTGCTAG` — result for “fitted relative affinity”: 2.39 z-score.
For `TTGTATTTGTCCCTATTTAAGTGCTAG`, “fitted relative affinity” read 1.4 z-score.
`GACGATTTCAGTCTCGAGAGGTGCTAG`: “fitted relative affinity” 2.43 z-score.

Series 3 — target: CCNB1, cyclin fold, Cln2 fusion (human); technique: yeast growth competition, sequencing; sample: yeast; notes: weak parent motif; reference: not given; direction: higher = stronger binding
Parent: HIRA docking peptide (human); SLSKRKLELEVET
`V11A`: “normalised enrichment score” -0.836.
Under “normalised enrichment score”, `L9F` is recorded as 0.0073.
`L9A`: “normalised enrichment score” 0.777.
Under “normalised enrichment score”, `T13A` is recorded as 0.446.
For `R5A L7A`, “normalised enrichment score” read -0.0135.
Under “normalised enrichment score”, `L2A` is recorded as 0.322.
Under “normalised enrichment score”, `R5K L9F` is recorded as 0.00788.
`S1A` — result for “normalised enrichment score”: 0.761.
`R5A`: “normalised enrichment score” -0.0579.
`E12A`: “normalised enrichment score” 0.225.

Series 4 — target: Sox, HMG box (Pigoraptor chileana); technique: Spec-seq; molecule type: double-stranded DNA, one strand shown; sample: in vitro; concentration: not given; notes: whole probe, mean of replicates; reference: not given; direction: lower = stronger binding; constant ends, left off below: GAGTCGTCTCGTCAGCAC … CCGTAGAGCACTCAGGTC
Construct (chain): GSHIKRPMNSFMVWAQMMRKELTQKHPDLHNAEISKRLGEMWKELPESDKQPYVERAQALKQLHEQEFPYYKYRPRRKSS
For `CATTGCA`, “relative binding energy” read 0.0499 ln ratio.
Under “relative binding energy”, `CATACCT` is recorded as 0.311 ln ratio.
For `CATGGCC`, “relative binding energy” read 0.453 ln ratio.
`GGGGGTT` — result for “relative binding energy”: 1.45 ln ratio.
For `TTTCGTT`, “relative binding energy” read 0.904 ln ratio.
Under “relative binding energy”, `CATCCGT` is recorded as 0.862 ln ratio.
`GTGTGTT`: “relative binding energy” -0.0659 ln ratio.
For `CATCTAT`, “relative binding energy” read 0.167 ln ratio.
`CATGTTG`: “relative binding energy” 0.546 ln ratio.
`CGATGTT` — result for “relative binding energy”: 0.187 ln ratio.
`CATCTGG` — result for “relative binding energy”: 0.732 ln ratio.
`TCGGGTT` — result for “relative binding energy”: 1.15 ln ratio.
For `TGTCGTT`, “relative binding energy” read 0.288 ln ratio.
For `CATAGTA`, “relative binding energy” read -0.99 ln ratio.
Under “relative binding energy”, `CATGTCA` is recorded as 0.755 ln ratio.
`GATTGTT` — result for “relative binding energy”: -2.91 ln ratio.

Series 5 — technique: RNA Bind-n-Seq; molecule type: RNA; sample: in vitro; concentration: 200 nM; notes: whole 134-nt RNA, ends assumed; added: 150 mM LiCl; reference: input library; direction: higher = stronger binding; library: 7-deaza-guanosine replaces G
Target: Ras GTPase-activating protein-binding protein 1, full length (G3BP1, Homo sapiens, UniProt Q13283)
UniProt Q13283, sequence (whole entry, looked up): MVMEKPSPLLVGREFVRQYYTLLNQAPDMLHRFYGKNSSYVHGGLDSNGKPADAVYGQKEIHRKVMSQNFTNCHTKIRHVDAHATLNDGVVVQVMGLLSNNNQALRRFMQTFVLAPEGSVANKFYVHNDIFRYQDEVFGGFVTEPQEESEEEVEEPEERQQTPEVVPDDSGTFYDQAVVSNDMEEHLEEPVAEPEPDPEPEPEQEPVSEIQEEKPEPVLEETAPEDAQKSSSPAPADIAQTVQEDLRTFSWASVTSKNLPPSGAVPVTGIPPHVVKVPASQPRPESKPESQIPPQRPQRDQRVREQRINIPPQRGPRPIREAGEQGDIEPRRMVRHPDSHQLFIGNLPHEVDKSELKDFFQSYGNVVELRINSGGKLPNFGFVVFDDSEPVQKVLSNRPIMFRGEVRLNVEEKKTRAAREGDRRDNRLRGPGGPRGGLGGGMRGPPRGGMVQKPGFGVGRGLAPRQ
The log2 enrichment of `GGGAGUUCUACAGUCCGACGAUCUGGCCCUGGUGGCAUGCGGGGAGGAAGAGGUGGCCUCAUGGAUCGUGGUGGUCCCGGUGGAAUGUUCAGAGGUGGCCGUGGUGGCGACAGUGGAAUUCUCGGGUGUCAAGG` is reported as -0.147.
`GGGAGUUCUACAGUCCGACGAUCCAAGUCCUGUGCUACACAUCGUAUGUACCGAAUCGGGAAAGGGUUUUUGGGAGGGAAAGUAUUAUGUUACGCCGUUCGGAUCUGCACUUCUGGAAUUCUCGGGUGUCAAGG` has a log2 enrichment of 0.097.
`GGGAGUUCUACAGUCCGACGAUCCACAGACAACACGCACCCACACAGACACAGAGGGAAGGGGUUGGGAUGGGGACAGGGUGCCCAGCAGGGCGGGGUAGGACCCCAGCCCCUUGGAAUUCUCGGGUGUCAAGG` gave a log2 enrichment of 0.565.
`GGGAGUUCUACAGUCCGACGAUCUGGCCCAGGUGGCAUGCGGGGAGGAAGAGGUGGCCUCAUGGAUCGUGGUGGUCCCGGUGGAAUGUUCAGAGGUGGCCGUGGUGGAGACAGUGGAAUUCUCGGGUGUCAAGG` has a log2 enrichment of 0.0856.
`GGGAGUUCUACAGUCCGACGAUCUCCUGUGCUACACAUCGUAUGUACCGAAUCAAACCCCCAAAUUUUUAAAUUUUUUUAAAAAAGUAUUAUGUUACGCCGUUCGGAUCUGCAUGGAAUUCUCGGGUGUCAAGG` gave a log2 enrichment of 1.36.
`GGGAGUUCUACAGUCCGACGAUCUGGGAGGUGGAUUUUGUUUAUUUUUUGAGCUCAUUUCCAGGGGUGGGAAUUUUUUUUUAAUAUGUGUCAUGAAUAAAGUUGUUUUUGAAAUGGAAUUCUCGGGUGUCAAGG` has a log2 enrichment of 0.325.
With `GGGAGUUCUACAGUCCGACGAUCGGUGGACUAUGGUGCAACAGCAGAAGAGCUGGAAGCUCACUUUCAUGGCUGUGGUUCAGUCAACCGUGUUACCAUACUGUGUGACAAAUUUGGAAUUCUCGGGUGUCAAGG` the log2 enrichment was -1.36.
For `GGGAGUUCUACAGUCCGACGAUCAAGUCCUGUGCUACACAUCGUAUGUACCGAAUCGGGGAAAGGGGUUUGGGGUGGGGAAAGUAUUAUGUUACGCCGUUCGGAUCUGCACUUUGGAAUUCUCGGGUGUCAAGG`, the log2 enrichment was -0.387.
For `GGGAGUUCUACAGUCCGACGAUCGUCCUGUGCUACACAUCGUAUGUACCGAAUCGGGGUUUUUGGGUUUUUGGUUUUUGGGAAAGUAUUAUGUUACGCCGUUCGGAUCUGCACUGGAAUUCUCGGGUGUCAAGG`, the log2 enrichment was -0.726.
The log2 enrichment of `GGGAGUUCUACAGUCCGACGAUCCCUGUGCUACACAUCGUAUGUACCGAAUCGGGGUUUGGGGUUUUUGGGGUUUUUUUGGGGAAAGUAUUAUGUUACGCCGUUCGGAUCUGCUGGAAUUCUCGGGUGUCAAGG` is reported as 0.534.
`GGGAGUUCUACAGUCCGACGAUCAGUCCUGUGCUACACAUCGUAUGUACCGAAUCGGAAAAAGGAAAAAGGGGAAAAAGGGAAAGUAUUAUGUUACGCCGUUCGGAUCUGCACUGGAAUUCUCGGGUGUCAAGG` has a log2 enrichment of -0.582.
